Published values of several laboratories.
Every numbered part comes from another study and shows a few of its results, in no order.

Study 1
Target: Interferon regulatory factor 7, full length, phosphomimetic (IRF7, Homo sapiens, UniProt Q92985, residues 1-503, S101K/S471D/S472D/S475D/S476D/S477D/S483D/S484D/S487D)
Method: protein-binding microarray
Form: double-stranded DNA, one strand shown
Matrix: in vitro
Concentration: 250 nM
Notes: 60-bp whole probe
Together with: salmon DNA 0.4 mg/ml
Baseline: random background probes
Direction: higher = stronger binding
Constant ends, left off below: GCCTAGCAC … GTCTTGATTCGCTTGACGCTGCTG
Residues (chain): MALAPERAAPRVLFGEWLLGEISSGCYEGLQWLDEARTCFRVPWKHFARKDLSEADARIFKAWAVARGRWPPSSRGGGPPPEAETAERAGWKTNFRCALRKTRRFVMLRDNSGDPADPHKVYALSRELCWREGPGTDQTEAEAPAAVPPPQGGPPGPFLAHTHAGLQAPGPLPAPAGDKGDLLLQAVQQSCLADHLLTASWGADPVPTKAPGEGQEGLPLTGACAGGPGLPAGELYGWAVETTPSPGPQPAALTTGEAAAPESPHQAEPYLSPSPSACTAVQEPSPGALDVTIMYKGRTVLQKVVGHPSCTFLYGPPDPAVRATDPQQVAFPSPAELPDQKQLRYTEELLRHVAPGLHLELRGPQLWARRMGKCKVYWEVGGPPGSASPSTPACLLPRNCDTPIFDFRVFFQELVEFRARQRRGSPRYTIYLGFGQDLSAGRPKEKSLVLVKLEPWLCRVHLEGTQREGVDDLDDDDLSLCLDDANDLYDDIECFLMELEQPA
Oligonucleotide	log fluorescence [z-score]
GACGATATCGGGACTGGAGATGTGCTA	-0.371
CTGCCTCACATTGCTAAGACGTGCTAG	1
TTAGGACTCGGGTATCGGTTAGTGCTA	1.91
TCATTTTCATTTTTTTTACTGTGCTAG	2.34
CTTGGCTTCTCCCACAGGTGGTGCTAG	-0.751
GACGGCTTCCTTTCCCTGACGTGCTAG	0.102

Study 2
Target: Histone acetyltransferase KAT6A, both winged helices, GST fusion (KAT6A, Homo sapiens, UniProt Q92794, residues 1-181)
Method: protein binding microarray
Form: double-stranded DNA, one strand shown
Matrix: in vitro
Concentration: not given
Notes: 8-mer, flanks averaged, mean of 2 arrays, mostly near background
Baseline: not given
Direction: higher = stronger binding
Target sequence (chain): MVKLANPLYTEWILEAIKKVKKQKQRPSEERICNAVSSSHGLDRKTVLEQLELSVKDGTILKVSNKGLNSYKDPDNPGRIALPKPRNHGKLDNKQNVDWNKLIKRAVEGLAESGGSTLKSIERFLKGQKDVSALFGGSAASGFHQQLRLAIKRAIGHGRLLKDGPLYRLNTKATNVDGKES
Oligonucleotide	E-score
CGAGCGGA	0.246
ATTACCCG	0.151
TATTGGAA	-0.127
ATGGGCGC	0.141
ACTTGTGG	-0.141
CGGGGCGC	0.242
GGTGTCAA	0.04

Study 3
Target: Sal-like protein 4, full length isoform B (SALL4, Homo sapiens, UniProt Q9UJQ4-2, residues 1-616)
Method: universal PBM
Form: double-stranded DNA, one strand shown
Matrix: in vitro
Concentration: not given
Notes: 8-mer, flanks averaged, mean of replicates
Direction: higher = stronger binding
Construct (chain): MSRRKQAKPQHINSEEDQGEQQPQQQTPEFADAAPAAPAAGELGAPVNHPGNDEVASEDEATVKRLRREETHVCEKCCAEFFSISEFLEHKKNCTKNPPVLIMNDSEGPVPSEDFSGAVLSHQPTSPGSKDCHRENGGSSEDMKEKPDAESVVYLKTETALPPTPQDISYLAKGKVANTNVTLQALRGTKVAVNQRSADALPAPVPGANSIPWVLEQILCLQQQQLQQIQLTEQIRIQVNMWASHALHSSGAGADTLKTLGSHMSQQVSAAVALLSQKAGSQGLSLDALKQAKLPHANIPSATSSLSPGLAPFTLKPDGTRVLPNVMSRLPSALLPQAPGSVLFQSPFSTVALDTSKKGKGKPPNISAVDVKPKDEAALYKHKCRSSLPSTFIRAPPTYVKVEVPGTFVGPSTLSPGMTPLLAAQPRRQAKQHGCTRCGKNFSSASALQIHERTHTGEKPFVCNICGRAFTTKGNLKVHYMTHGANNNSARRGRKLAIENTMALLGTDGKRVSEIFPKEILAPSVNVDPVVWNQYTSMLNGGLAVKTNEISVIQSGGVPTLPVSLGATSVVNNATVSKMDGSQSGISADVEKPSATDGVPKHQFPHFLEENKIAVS
Oligonucleotide	E-score
AAGCTGTA	0.227
TGGACTAA	0.0368
AACGCGCG	-0.0696
ACAGCCTC	-0.232
AATGGCGC	-0.195
AGCTACCT	-0.0394
ATTTTGTG	0.287
GCCGTCAC	-0.119
GCTACTTA	0.0423
CGGCCCCG	-0.35

Single results of other studies
Substance	target	test	system	setting	how to read	quantity	value
PhoQ, residues 284 288 289 292 302 303 TAVSDG	PhoP, residues 12 14 15 18 19 GQALL (Escherichia coli, UniProt P23836)	Sort-seq, refers to: YFP reporter	E. coli	PhoQ-PhoP variant library, together with: 10 µM Mg2+	baseline: high Mg2+ state, higher = stronger signaling	fold induction	15.5
